Published values from different studies.
Protocols differ between the studies behind these lines. “And” joins repeats or separate records; there may be more than shown. ± marks the error that the study gave.

For `Cc1cc(O)cc(C)c1C[C@H](N)C(=O)N[C@H](CCCNC(=N)N)C(=O)N[C@@H](Cc1ccccc1)C(=O)N[C@@H](CCCCN)C(=O)N[C@H]1CC[C@H](NC(=O)[C@H](Cc2ccccc2)NC(=O)[C@H](CC2CCCCC2)NC[C@@H]2Cc3ccccc3CN2C(=O)[C@@H](N)Cc2ccc(O)cc2)CC1`, the IC50 was 98.3 ± 2.4 nM (opioid receptor; smooth muscle contraction, agonist; mouse vas deferens).
`CC[C@@H]1CN2CCc3c([nH]c4cccc(OC)c34)[C@@H]2C[C@@H]1/C(=C\OC)C(=O)OC` has an IC50 of 0.43 µg/mL and 0.41 µg/mL (rabbit anti-mitragynine polyclonal IgG; antigen binding, competitor, competitive indirect ELISA; 5% methanol; 30 min antibody-standard, 60 min antibody-antigen incubation).
Under radioligand uptake, `CC(C)OC(=O)OCOC(=O)C(CCC(=O)O)CP(=O)(OCOC(=O)OC(C)C)OCOC(=O)OC(C)C` (centres unmarked) is recorded as “no effect” (PSMA; PET; mouse bearing 22Rv1 tumour, tumour; intravenous, 0.25 mg/kg, 15 min before, imaging at 60 min, together with: [18F]F-DCFPyL; reference: vehicle).
For `CCCCCCCCCCCC(=O)C(C)C(=O)N1CCC[C@H]1C(=O)NC(C)(C)C(=O)NC(C)(C)C(=O)NC(C)(C)C(=O)N[C@](C)(CC)C(=O)NCCC(=O)N[C@@H](C)C(=O)N[C@](C)(CC)C(=O)N[C@@H](C)C(=O)N[C@@H](CC(C)C)C(=O)N[C@](C)(CC)C(=O)NCCC(=O)N[C@@H](C)C(=O)N[C@](C)(CC)C(=O)NCCC(=O)N[C@@H](C)C(=O)NC(C)(C)C(=O)NC(C)(C)C(=O)NC(C)(C)C(=O)N[C@@H](C)C(=O)N[C@@H](CC(=O)O)C(=O)O` (some centres unmarked), “bound compound (MS peak area)” read 0 a.u. (chitin; pull-down, LC-MS; 1 h, pH 7.0, 30 °C, together with: chitin 1 mg/mL; higher = more bound).
`Cc1ccc2c(n1)c(-c1cccc(S(C)(=O)=O)c1)c(C)n2C/C(F)=C/CN` gave an inhibition of 63% (L-type calcium channel, rat, Phenylalkylamine site; radioligand binding, Eurofins SafetyScreen; 10 µM).
`CSCC[C@H](NC(=O)CNC(=O)[C@H](CCSC)NC(=O)[C@H](CS)NC(=O)[C@@H](N)CS)C(=O)N[C@@H](CS)C(=O)NCC(=O)N[C@@H](CCCCN)C(=O)O`: p38/β-actin ratio “decreased” (p38 MAPK (mouse); Western blot; RAW264.7; 0.1 and 1 µg/mL).
With `CCc1nn(C)c2nc(-c3ccc(C(=O)O)cc3)nc(NCc3ccccc3)c12` the IC50 was 600 nM (PDE1, guinea pig; inhibitor; heart).
`CC[C@H](C)[C@@H]1NC(=O)[C@H](Cc2ccccc2)NC(=O)[C@H](C)NC(=O)[C@@H](NC(=O)[C@@H](NC(=O)[C@H](CO)NC(=O)[C@@H](N)Cc2ccc(O)cc2)[C@@H](C)O)CSC(=O)[C@H](CCSC)NC1=O` — result for inhibition: “no inhibition” (AgrC-I/AgrA phosphotransfer, Staphylococcus aureus; phosphotransfer; reconstituted in nanodiscs; concentration not given).
Under “PML protein level”, `C[C@@H]1NC(=O)[C@H](CCCNC(=N)N)NC(=O)[C@H](Cc2ccc3ccccc3c2)NC(=O)[C@H]2CCCCN2C(=O)[C@@H]([C@H](C)O)NC(=O)[C@H](Cc2ccc(F)cc2)NC(=O)[C@@H](Cc2ccc(F)cc2)NC(=O)c2cc3cc(c2)C(=O)NC[C@H](NC(=O)[C@@H](Cc2ccccc2)NC1=O)C(=O)N[C@@H](Cc1ccccc1)C(=O)N[C@@H](Cc1ccc2ccccc2c1)C(=O)N[C@@H](CCCNC(=N)N)C(=O)N[C@@H](CCCNC(=N)N)C(=O)N[C@@H](CCCNC(=N)N)C(=O)N[C@@H](CCCNC(=N)N)C(=O)N[C@H](C(=O)N[C@@H](CCCCN)C(N)=O)CNC3=O` is recorded as 3.3 fold (Pin1 human; inhibitor, Western blot; HeLa; about 1 µM, plateau level; reference: untreated).
With `Cc1cc(C(=O)Nc2nc3cccc(C)c3n2[C@H]2CCCCN(C(=O)/C=C/CN(C)C)C2)ccn1` the ΔTm was 12.6 °C and 12.7 °C (Trypanosoma brucei CLK1 wild type; thermal stability, differential scanning fluorimetry; reference: DMSO).
With `COc1ccccc1-c1n[nH]c2nc(NC3CCN(C(=O)Cc4ccc(F)cc4F)CC3)ncc12` the relative abundance was 0.89 (LMJF.25.1180; bead binding competition; Leishmania donovani extract; 10 µM; reference: vehicle).
The remaining binding of `Nc1ncc(-c2cc(-c3cnn(CC(F)(F)F)c3)ncc2F)nc1C(=O)NC1CNCC(F)C1` (centres unmarked) is reported as 90% (GCN2 kinase domain 2 S808G; KINOMEscan; 1 µM).
`Cc1ccc2c(c1)nc(NC(=O)c1cccc(C(F)(F)F)c1)n2[C@H]1CC[C@H](N)CC1` has a melting temperature of 41.3 °C and 41.4 °C and 41.2 °C (Trypanosoma brucei CLK1 wild type; differential scanning fluorimetry).
For `COc1ccccc1-c1n[nH]c2nc(N[C@H]3CC[C@H](NS(=O)(=O)CC(C)C)CC3)ncc12`, “relative captured amount” read 0.55 (CYC6 LINJ.32.3520; bead competition pull-down; Leishmania extract; 10 µM; reference: vehicle).

For quick reference, copied from above:
Under radioligand uptake, `CC(C)OC(=O)OCOC(=O)C(CCC(=O)O)CP(=O)(OCOC(=O)OC(C)C)OCOC(=O)OC(C)C` (centres unmarked) is recorded as “no effect” (PSMA; PET; mouse bearing 22Rv1 tumour, tumour; intravenous, 0.25 mg/kg, 15 min before, imaging at 60 min, together with: [18F]F-DCFPyL; reference: vehicle).
